Measurements collected from several papers.
Numbered parts are unrelated; each lists some results of a single study. Several values in a cell are separate wells, animals, samples, runs or records.
Chain of UniProt Q9H2X6 (whole entry, looked up): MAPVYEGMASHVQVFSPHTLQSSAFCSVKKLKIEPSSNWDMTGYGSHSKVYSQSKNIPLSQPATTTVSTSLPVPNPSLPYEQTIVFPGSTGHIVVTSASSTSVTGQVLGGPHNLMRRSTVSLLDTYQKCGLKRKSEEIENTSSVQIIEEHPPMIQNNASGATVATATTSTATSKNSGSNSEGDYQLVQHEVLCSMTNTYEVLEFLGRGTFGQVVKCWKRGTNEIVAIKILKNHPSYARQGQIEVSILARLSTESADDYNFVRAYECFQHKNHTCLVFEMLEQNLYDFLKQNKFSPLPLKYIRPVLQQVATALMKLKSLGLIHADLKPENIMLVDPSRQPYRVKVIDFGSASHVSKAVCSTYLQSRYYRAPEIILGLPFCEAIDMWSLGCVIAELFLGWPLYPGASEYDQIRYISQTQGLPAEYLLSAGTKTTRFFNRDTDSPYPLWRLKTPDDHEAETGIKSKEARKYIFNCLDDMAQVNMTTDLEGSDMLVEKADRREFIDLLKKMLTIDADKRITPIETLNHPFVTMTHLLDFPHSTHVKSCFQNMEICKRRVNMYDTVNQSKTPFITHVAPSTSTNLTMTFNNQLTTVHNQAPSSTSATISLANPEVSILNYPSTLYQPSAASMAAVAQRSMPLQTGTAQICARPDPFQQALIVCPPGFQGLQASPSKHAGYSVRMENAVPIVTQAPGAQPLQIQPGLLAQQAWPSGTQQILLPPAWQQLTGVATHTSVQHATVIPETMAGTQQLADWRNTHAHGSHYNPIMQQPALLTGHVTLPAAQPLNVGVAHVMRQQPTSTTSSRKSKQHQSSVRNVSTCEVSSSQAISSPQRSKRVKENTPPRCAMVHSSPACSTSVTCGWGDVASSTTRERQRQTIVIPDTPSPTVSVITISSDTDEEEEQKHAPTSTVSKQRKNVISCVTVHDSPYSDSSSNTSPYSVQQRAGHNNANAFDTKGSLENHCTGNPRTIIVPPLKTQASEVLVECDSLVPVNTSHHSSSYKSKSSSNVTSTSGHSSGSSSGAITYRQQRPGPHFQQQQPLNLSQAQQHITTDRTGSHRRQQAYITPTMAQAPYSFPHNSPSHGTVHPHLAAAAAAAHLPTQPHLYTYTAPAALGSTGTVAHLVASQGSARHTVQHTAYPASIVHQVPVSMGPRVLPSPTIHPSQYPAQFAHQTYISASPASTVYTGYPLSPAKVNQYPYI
Chain of UniProt Q00534 (whole entry, looked up): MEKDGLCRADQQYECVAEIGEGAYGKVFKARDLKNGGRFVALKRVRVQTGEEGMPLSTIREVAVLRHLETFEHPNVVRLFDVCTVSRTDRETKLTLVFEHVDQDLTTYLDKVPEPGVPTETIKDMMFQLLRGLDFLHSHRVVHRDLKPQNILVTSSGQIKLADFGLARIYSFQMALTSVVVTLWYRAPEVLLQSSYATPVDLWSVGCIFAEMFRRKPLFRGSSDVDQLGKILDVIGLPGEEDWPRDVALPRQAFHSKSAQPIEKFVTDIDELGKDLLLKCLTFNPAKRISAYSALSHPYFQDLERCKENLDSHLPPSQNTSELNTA
Chain of UniProt P10721 (whole entry, unmodified, looked up): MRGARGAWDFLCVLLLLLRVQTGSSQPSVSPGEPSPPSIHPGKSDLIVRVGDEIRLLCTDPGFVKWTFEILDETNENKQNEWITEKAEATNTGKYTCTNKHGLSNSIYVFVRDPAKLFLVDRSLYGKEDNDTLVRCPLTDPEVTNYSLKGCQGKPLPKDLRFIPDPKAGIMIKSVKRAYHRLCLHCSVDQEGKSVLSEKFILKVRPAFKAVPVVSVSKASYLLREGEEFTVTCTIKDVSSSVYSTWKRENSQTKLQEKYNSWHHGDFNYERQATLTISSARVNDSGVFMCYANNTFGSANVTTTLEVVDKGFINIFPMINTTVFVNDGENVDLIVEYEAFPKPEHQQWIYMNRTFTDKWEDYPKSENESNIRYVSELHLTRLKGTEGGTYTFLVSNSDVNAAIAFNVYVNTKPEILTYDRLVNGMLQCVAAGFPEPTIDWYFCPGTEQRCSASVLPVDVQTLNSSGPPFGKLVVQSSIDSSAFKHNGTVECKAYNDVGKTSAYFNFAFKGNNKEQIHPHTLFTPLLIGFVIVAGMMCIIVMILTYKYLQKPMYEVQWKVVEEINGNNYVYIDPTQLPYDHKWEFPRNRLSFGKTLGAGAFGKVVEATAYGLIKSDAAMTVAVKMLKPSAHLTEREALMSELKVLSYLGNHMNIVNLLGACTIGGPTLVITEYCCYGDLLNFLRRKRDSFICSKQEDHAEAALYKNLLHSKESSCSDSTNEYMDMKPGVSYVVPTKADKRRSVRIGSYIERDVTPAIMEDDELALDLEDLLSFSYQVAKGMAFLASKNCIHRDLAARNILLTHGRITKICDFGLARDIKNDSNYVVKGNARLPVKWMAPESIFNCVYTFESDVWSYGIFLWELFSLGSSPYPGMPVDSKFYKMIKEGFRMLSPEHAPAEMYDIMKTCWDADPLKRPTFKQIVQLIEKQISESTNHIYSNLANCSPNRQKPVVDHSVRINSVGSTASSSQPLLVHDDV
Chain of UniProt P54764 (whole entry, looked up): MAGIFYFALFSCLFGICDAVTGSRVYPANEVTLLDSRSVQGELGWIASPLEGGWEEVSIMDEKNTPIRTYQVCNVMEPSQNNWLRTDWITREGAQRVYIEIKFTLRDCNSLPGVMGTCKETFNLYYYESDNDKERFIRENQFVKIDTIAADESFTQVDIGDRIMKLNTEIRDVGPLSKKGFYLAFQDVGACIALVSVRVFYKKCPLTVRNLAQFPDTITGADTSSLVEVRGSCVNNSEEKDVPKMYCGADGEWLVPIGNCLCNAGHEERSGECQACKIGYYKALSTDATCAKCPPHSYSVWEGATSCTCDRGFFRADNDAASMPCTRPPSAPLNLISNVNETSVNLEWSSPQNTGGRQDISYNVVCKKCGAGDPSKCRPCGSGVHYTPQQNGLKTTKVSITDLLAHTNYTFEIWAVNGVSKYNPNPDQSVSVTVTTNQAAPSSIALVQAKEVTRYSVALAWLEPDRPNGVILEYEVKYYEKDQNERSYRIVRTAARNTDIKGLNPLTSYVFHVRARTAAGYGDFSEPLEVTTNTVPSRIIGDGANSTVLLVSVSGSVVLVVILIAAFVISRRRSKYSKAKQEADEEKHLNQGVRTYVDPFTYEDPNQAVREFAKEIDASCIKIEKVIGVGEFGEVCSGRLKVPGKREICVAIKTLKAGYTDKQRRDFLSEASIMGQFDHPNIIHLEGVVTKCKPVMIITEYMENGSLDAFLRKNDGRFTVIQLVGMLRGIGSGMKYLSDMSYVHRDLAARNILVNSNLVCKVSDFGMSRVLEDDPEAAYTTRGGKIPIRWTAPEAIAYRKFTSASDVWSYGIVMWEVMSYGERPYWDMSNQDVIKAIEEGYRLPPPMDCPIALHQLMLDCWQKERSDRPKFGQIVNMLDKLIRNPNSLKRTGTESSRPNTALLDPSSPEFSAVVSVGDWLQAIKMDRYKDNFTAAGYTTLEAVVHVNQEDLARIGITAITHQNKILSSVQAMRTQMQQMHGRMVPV
Chain of UniProt Q9UEE5 (whole entry, looked up): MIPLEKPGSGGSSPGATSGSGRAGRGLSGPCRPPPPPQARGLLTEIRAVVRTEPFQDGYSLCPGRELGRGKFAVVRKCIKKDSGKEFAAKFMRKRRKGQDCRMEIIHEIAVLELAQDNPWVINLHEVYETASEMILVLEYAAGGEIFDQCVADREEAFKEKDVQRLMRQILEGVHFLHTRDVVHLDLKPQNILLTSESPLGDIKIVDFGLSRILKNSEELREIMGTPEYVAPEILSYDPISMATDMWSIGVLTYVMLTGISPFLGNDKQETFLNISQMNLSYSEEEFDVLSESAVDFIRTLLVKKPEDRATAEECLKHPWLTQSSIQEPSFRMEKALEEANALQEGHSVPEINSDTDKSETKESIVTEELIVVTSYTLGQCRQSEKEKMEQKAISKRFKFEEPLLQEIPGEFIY
Chain of UniProt P42336 (whole entry, unmodified, looked up): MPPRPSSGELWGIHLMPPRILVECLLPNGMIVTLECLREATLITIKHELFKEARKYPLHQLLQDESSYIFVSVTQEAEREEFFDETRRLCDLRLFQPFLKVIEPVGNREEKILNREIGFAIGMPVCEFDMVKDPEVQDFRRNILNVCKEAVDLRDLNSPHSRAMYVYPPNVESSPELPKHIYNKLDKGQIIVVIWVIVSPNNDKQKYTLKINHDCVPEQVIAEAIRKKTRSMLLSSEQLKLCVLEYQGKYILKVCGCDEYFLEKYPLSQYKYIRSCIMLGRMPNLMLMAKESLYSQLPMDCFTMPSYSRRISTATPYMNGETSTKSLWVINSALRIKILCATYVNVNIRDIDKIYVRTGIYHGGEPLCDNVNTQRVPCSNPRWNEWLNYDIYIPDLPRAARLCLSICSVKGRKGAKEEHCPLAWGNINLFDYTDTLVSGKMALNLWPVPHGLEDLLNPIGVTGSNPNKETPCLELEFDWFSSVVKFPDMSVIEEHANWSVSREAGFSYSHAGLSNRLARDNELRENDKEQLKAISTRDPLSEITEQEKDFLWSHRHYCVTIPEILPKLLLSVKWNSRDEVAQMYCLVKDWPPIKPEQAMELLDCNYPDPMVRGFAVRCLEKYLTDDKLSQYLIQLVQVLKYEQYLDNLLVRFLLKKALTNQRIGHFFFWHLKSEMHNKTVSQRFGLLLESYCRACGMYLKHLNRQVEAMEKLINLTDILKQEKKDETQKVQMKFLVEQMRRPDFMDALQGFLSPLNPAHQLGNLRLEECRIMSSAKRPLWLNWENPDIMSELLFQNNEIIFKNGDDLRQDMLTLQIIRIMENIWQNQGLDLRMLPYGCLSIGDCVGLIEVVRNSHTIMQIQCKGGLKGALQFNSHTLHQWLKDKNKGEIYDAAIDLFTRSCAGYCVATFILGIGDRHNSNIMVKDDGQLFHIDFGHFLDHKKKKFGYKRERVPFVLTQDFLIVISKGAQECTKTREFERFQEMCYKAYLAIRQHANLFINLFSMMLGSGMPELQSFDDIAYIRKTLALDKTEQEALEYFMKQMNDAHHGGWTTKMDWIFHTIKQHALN

Block 1 — species: mouse; sample: microsomes or S9; tested at: 2 µM; time: 0.5 h; quantity: remaining compound
Compound = COc1cc(C)c2c(c1C=O)Oc1c(c(C)c(O)c3c1C(O)OC3=O)OC2=O (centres unmarked); value = > 99%
Compound = CCCc1noc2nc(CC)cc(C(=O)N(C)Cc3ncon3)c12; value = 37.5%
Compound = Nc1cc(-c2ccc(Br)cc2)nn1CC1CCCCC1; value = 34.9%
Compound = O=S(=O)(O)c1ccc(-c2cnc(-c3ccc(-c4ncc(-c5ccc(S(=O)(=O)O)cc5)o4)cc3)o2)cc1; value = 99%

Block 2 — effect on: cell-free assay; technique: competition with immobilised ligand; tested at: 1 µM; quantity: remaining binding
Structure (SMILES): CC1=C(C#N)C(c2ccc3c(c2)c(NC(=O)c2ccccc2C)nn3C)C(C#N)=C(C)N1
target = PIK3CA (Homo sapiens, UniProt P42336, H1047Y); value = 91%
target = TNK2 (Homo sapiens, UniProt Q07912); value = 86%
target = KIT (Homo sapiens, UniProt P10721, T670I/V559D); value = 100%
target = HIPK2 (Homo sapiens, UniProt Q9H2X6); value = 73%
target = FGFR4 (Homo sapiens, UniProt P22455); value = 100%

Block 3 — cell line: human CD34+ HSPC; technique: EdU flow cytometry; time: 24 h; quantity: G2-M phase cells
Structure (SMILES): CC(C)C[C@@H]1NC(=O)[C@@H](N(C)C(=O)[C@H](CC2CCC2)NC(=O)[C@@H]2C[C@@H](F)CN2C(=O)C2(C(F)(F)F)CC(F)(F)C2)CCCCNC(=O)C2(CC2)NC(=O)[C@H](Cc2cc(Cl)ccc2Cl)N(C)C1=O
setting = 3000 nM; value = 8.99% and 10.1%
setting = 1000 nM; value = 6.22% and 7.75%
setting = 10000 nM; value = 9.04% and 8.12%

Block 4 — effect on: enzyme activity; mode: inhibitor; tested at: 0.5 µM; relative to: control; quantity: remaining activity
Compound: COc1ccc(C(=O)Nc2sc3c(c2C(N)=O)CCCC3)cc1OC
target = Cyclin-dependent kinase 1, with cyclin B (CDK1, Homo sapiens, UniProt P06493); value = 94.3%
target = CAMK2B (Homo sapiens, UniProt Q13554); value = 99.9%
target = RPS6KA5 (Homo sapiens, UniProt O75582); value = 106%
target = PHKG1 (Homo sapiens, UniProt Q16816); value = 94.3%
target = ABL1 (Homo sapiens, UniProt P00519); value = 101%
target = EPHA4 (Homo sapiens, UniProt P54764); value = 104%
target = HIPK2 (Homo sapiens, UniProt Q9H2X6); value = 107%
target = STK17A (Homo sapiens, UniProt Q9UEE5); value = 98.5%
target = WNK3 (Homo sapiens, UniProt Q9BYP7); value = 96.4%
target = Cyclin-dependent kinase 6, with cyclin D3 (CDK6, Homo sapiens, UniProt Q00534); value = 94.9%
target = MAPKAPK3 (Homo sapiens, UniProt Q16644); value = 97.2%

A few entries again (block 1):
Compound = CCCc1noc2nc(CC)cc(C(=O)N(C)Cc3ncon3)c12; value = 37.5%
Compound = COc1cc(C)c2c(c1C=O)Oc1c(c(C)c(O)c3c1C(O)OC3=O)OC2=O (centres unmarked); value = > 99%
